Results collected from several papers.
Parts stem from different laboratories: compare values within a part only.

Study 1
Target: Sal-like protein 4, full length isoform A (SALL4, Homo sapiens, UniProt Q9UJQ4, residues 1-1053)
Chain of UniProt Q9UJQ4 (whole entry, looked up): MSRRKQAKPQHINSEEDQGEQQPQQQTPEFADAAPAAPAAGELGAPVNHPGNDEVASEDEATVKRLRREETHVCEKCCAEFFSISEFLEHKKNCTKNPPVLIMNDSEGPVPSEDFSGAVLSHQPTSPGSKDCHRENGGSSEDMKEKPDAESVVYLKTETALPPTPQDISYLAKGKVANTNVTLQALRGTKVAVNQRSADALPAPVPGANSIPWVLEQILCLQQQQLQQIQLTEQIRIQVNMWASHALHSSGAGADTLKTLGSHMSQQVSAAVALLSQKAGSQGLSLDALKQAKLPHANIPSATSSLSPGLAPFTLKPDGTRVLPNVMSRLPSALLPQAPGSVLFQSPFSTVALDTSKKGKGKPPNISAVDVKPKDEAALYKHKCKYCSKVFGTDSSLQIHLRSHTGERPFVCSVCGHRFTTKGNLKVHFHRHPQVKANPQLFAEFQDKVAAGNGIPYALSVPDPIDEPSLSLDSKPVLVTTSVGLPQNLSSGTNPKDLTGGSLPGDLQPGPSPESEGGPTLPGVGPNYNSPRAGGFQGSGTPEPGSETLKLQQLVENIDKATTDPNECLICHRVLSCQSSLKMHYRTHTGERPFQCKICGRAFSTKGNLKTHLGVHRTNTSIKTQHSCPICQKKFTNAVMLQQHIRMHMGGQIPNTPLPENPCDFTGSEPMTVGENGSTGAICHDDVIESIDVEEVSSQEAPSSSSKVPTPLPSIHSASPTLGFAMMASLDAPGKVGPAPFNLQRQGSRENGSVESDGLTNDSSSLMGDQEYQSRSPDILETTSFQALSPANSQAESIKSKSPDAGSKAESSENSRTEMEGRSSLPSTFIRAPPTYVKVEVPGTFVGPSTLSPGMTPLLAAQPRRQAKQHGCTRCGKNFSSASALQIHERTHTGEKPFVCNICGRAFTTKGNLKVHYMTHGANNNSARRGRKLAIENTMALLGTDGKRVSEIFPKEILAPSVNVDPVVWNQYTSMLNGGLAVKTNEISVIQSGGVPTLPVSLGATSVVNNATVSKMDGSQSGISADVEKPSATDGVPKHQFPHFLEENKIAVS
Method: universal PBM
Molecule type: double-stranded DNA, one strand shown
Sample: in vitro
Concentration: 600 nM
Notes: 8-mer, flanks averaged, mean of replicates
Direction: higher = stronger binding
| Strand | E-score |
| --- | --- |
| GGGATAGA | -0.0359 |
| CCTGCCGC | -0.441 |
| GCTGGGGA | -0.274 |

Study 2
Target: Histone acetyltransferase KAT6A, both winged helices, GST fusion (KAT6A, Homo sapiens, UniProt Q92794, residues 1-181)
Method: protein binding microarray
Molecule type: double-stranded DNA, one strand shown
Sample: in vitro
Concentration: not given
Notes: 8-mer, flanks averaged, mean of 2 arrays, mostly near background
Reference: not given
Direction: higher = stronger binding
Residues (chain): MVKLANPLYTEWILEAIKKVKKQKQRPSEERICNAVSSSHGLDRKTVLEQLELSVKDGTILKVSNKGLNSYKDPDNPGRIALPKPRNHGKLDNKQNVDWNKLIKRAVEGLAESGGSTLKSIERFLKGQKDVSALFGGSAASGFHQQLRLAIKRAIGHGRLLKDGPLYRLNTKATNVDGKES
| Strand | E-score |
| --- | --- |
| ATAACCAA | -0.161 |
| CAAGTCCG | 0.0824 |
| AGCAAGCG | 0.17 |
| GACAGGTA | -0.162 |

Study 3
Target: PABPC1L2, full length, GST fusion (mouse, UniProt A0ABA7IW68)
Method: RNAcompete
Molecule type: RNA
Sample: in vitro
Concentration: 20 nM
Notes: 7-mer, probes averaged, single round
Reference: mean of 7-mers
Direction: higher = stronger binding
Construct (chain): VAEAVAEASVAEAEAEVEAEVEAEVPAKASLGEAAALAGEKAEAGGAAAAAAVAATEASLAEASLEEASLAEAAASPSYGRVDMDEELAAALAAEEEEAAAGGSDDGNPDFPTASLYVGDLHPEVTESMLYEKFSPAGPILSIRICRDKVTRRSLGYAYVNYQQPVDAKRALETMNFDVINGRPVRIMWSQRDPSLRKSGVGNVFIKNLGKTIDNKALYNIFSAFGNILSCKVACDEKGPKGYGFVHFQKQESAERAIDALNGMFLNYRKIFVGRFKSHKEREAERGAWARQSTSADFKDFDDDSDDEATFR
| Strand | 7-mer Z-score |
| --- | --- |
| GCUCGCC | -0.44 |
| CCUAGAG | 0.0714 |
| UCUCACU | -0.233 |

Mixed results
| Molecule | target | assay | system | conditions | how to read | endpoint | value |
| --- | --- | --- | --- | --- | --- | --- | --- |
| PhoQ, residues 284 288 289 292 302 303 TTSMTC | PhoP, residues 12 14 15 18 19 DLLYY (Escherichia coli, UniProt P23836) | Sort-seq, measured: YFP reporter | E. coli | PhoQ-PhoP variant library, together with: 10 µM Mg2+ | reference: high Mg2+ state, higher = stronger signaling | fold induction | 1.04 |

Repeated from above (study 2):
| Strand | E-score |
| --- | --- |
| ATAACCAA | -0.161 |
